Measured values collected from several papers.
Numbers after ± are the reported error.
Replicase polyprotein 1a 3C-like proteinase: Replicase polyprotein 1a, 3C-like proteinase (Ferret coronavirus, UniProt A0A172B201)
CDK2 with cyclin A: Cyclin-dependent kinase 2, with cyclin A (CDK2, Homo sapiens, UniProt P24941)
crk3: crk3 (Leishmania mexicana, UniProt O15851)
MED23 with ELF3: Mediator of RNA polymerase II transcription subunit 23, with ELF3 (MED23, Homo sapiens, UniProt Q9ULK4)
Urease: Urease (Canavalia ensiformis, UniProt P07374)
Sequence of UniProt P07374 (whole entry, looked up): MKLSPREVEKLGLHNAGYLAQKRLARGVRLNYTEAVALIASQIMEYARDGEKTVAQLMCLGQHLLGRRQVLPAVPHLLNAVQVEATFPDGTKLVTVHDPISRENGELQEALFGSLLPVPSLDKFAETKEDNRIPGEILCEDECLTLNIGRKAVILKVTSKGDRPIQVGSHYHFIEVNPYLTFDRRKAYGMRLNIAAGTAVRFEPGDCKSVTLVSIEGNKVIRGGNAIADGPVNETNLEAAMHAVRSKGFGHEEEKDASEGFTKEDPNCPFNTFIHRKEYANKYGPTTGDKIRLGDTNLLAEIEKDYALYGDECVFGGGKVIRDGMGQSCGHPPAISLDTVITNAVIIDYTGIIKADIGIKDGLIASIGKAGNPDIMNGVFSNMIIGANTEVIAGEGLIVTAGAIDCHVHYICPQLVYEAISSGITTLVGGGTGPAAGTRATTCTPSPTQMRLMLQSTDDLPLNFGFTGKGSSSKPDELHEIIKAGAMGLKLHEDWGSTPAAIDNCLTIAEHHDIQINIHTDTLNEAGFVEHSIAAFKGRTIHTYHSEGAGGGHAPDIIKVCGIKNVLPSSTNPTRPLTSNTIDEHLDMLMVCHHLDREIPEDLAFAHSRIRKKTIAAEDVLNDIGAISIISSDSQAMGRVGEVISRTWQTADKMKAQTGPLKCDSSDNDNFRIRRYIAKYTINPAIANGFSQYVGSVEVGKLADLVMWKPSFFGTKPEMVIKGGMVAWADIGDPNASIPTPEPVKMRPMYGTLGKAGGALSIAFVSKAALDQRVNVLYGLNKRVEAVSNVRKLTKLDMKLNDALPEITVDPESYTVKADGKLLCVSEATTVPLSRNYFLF
Replicase polyprotein 1ab main protease: Replicase polyprotein 1ab, main protease (Feline coronavirus, UniProt Q98VG9)
CDK8: Cyclin-dependent kinase 8 (CDK8, Homo sapiens, UniProt P49336)
Sequence of UniProt P49336 (whole entry, looked up): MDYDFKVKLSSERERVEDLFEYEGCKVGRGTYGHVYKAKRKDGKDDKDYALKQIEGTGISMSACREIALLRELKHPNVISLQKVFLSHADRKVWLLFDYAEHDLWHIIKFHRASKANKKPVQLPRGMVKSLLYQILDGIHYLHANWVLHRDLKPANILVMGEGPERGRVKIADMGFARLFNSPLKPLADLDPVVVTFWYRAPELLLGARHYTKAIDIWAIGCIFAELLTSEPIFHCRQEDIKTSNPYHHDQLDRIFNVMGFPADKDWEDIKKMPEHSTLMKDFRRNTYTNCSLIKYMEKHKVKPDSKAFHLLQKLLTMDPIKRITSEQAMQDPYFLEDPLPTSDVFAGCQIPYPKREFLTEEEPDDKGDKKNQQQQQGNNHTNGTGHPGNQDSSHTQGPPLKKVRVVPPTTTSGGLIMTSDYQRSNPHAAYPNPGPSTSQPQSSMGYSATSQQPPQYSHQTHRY
Plasmepsin IX: Plasmepsin IX (Plasmodium falciparum, UniProt Q8ILG2)
Sequence of UniProt Q8ILG2 (whole entry, looked up): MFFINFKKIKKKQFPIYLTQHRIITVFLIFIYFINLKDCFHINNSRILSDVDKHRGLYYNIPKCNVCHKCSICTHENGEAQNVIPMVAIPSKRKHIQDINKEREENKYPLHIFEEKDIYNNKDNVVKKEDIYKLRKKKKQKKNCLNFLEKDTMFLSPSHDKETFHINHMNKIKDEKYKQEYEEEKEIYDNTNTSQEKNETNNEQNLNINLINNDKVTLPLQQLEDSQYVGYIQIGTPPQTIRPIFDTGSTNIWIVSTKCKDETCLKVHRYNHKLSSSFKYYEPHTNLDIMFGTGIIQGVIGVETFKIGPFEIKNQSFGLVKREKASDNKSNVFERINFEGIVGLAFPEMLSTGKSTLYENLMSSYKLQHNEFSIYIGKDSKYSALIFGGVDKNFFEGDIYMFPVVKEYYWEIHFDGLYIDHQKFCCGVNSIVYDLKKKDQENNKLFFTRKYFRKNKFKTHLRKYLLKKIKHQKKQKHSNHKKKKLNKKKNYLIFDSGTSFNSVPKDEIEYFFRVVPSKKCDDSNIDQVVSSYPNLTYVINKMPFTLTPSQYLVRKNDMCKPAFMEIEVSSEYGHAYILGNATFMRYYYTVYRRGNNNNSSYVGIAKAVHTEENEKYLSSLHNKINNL
Sequence of UniProt P56817 (whole entry, looked up): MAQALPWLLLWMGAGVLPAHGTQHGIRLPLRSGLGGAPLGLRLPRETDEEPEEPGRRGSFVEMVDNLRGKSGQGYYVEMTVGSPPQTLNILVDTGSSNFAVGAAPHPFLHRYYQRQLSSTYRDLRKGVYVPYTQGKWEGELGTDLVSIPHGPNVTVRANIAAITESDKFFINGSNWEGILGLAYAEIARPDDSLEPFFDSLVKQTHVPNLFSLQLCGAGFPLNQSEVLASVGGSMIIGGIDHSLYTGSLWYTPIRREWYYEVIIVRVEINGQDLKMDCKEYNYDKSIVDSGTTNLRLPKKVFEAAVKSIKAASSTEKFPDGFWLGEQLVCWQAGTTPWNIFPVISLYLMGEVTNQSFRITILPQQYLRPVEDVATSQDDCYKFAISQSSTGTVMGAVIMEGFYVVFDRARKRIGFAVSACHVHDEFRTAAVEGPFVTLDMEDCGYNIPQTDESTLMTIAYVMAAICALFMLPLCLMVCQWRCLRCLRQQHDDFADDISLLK

`CC(C)C[C@H](NC(=O)OCc1ccccc1)C(=O)N[C@@H](C[C@@H]1CCNC1=O)C(=O)C(=O)NC1CCCCC1` gave an IC50 of 0.83 ± 0.41 µM (Replicase polyprotein 1a 3C-like proteinase; enzyme activity, FRET; NL-2010).
With `Cc1cccc(C)c1-c1ccc2nc(NC(=O)C3CCCCC3)nn2c1` the IC50 was > 100 µM (CDK2 with cyclin A; enzyme activity, inhibitor).
`O=C[C@H](C[C@@H]1CCNC1=O)NC(=O)[C@H](CC1CCCCC1)NC(=O)OCc1ccccc1` gave an IC50 of 1.45 ± 0.3 µM (Replicase polyprotein 1a 3C-like proteinase; enzyme activity, FRET; NL-2010).
`Cc1cccc(-c2ccc3nc(NC(=O)CCC4CCCC4)nn3c2)c1` gave an IC50 of < 0.005 µM (crk3; enzyme activity, inhibitor, radiometric).
With `COc1ccc(C=CC(=O)c2cccc(O)c2)c2ccccc12` the IC50 was 1.72 ± 0.02 µM (MED23 with ELF3; SEAP reporter gene, inhibitor).
The IC50 of `Cc1cccc(-c2ccc3nc(N)nn3c2)c1` is reported as 37 µM (CDK2 with cyclin A; enzyme activity, inhibitor).
With `Oc1ccccc1C1=NN(c2ccccc2)C(c2ccccc2C(F)(F)F)C1` (centres unmarked) the IC50 was 9.18 µM (Urease; enzyme activity, inhibitor, absorbance; pH 8.2).
`O=C(C=Cc1ccco1)c1cccc(O)c1` gave an IC50 of 2.13 ± 0.04 µM (MED23 with ELF3; SEAP reporter gene, inhibitor).
For `O=C(N[C@@H](CC1CCCCC1)C(=O)N[C@@H](C[C@@H]1CCNC1=O)C(O)S(=O)(=O)O)OCc1ccccc1` (some centres unmarked), the IC50 was 0.42 µM (Replicase polyprotein 1ab main protease; enzyme activity, inhibitor, FRET).
`Cc1cccc(-c2ccc3nc(NC(=O)C4CCCC4)nn3c2)c1` has an IC50 of > 100 µM (CDK2 with cyclin A; enzyme activity, inhibitor).
`O=C[C@H](C[C@@H]1CCNC1=O)NC(=O)[C@H](CC1CCCCC1)NS(=O)(=O)c1cccc(Cl)c1` gave an IC50 of 10.7 µM (Replicase polyprotein 1ab main protease; enzyme activity, inhibitor, FRET).
With `CCc1ccc(NS(=O)(=O)c2ccc3c(c2)C(=C(C)C)C(=O)N3)cc1` the IC50 was > 10 µM (CDK8; enzyme activity, inhibitor, FRET).
The IC50 of `N#Cc1ccc(C2CC(c3ccccc3O)=NN2c2ccccc2)cc1` (centres unmarked) is reported as 9.35 µM (Urease; enzyme activity, inhibitor, absorbance; pH 8.2).
`CC(=O)Nc1ccc(NS(=O)(=O)c2ccc3c(c2)C(=C(C)C)C(=O)N3)cc1` has an IC50 of 1.68 µM (CDK8; enzyme activity, inhibitor, FRET).
With `CNC(=O)NC1=CC(=O)CC(C)(C)C1` the IC50 was > 100 µM (CDK2 with cyclin A; enzyme activity, inhibitor).
`CC(C)C[C@H](NC(=O)[C@@H](NC(=O)[C@H](CCONC(=N)N)NC(=O)OCc1ccccc1)C(C)C)[C@@H](O)CC(=O)NCCc1ccccc1` has an IC50 of > 1 µM (Beta-secretase 1 (BACE1, Homo sapiens, UniProt P56817); enzyme activity, inhibitor).
`CC(=O)c1cccc(NS(=O)(=O)c2ccc3c(c2)C(=C(C)C)C(=O)N3)c1` gave an IC50 of 1.49 µM (CDK8; enzyme activity, inhibitor, FRET).
With `O=C[C@H](C[C@@H]1CCNC1=O)NC(=O)[C@H](CC1CCCCC1)NC(=O)OCc1cccc(Cl)c1` the IC50 was 0.63 µM (Replicase polyprotein 1ab main protease; enzyme activity, inhibitor, FRET).
With `CC(C)C[C@H](NC(=O)[C@@H](NC(=O)[C@H](CCCNC(=N)N)NS(=O)(=O)Cc1ccccc1)C(C)C)[C@@H](O)CC(=O)NCCc1ccccc1` the IC50 was 50.7 µM (Plasmepsin IX; enzyme activity, inhibitor).
The IC50 of `O=C(C=Cc1ccc(O)cc1)c1cccc(O)c1` is reported as 3.96 ± 0.04 µM (MED23 with ELF3; SEAP reporter gene, inhibitor).
With `O=C[C@H](C[C@@H]1CCNC1=O)NC(=O)[C@H](CC1CCCCC1)NS(=O)(=O)c1ccc(Cl)cc1` the IC50 was 24.2 ± 6.99 µM (Replicase polyprotein 1a 3C-like proteinase; enzyme activity, FRET; NL-2010).
The IC50 of `Cc1cccc(-c2ccc3nc(NC(=O)CC4CCCCC4)nn3c2)c1` is reported as 0.01 µM (crk3; enzyme activity, inhibitor, radiometric).
`CC(C)=C1C(=O)Nc2ccc(S(=O)(=O)Nc3cccc4c3CCCC4)cc21` has an IC50 of > 10 µM (CDK8; enzyme activity, inhibitor, FRET).
`CCC(=O)N1N=C(c2cccc(O)c2)CC1c1ccc(OC)cc1` (centres unmarked) has an IC50 of 5.01 ± 1.16 µM (MED23 with ELF3; SEAP reporter gene, inhibitor).
The IC50 of `O=C(Nc1nc2ccc(-c3cccc4ccccc34)cn2n1)C1CCCCC1` is reported as 0.09 µM (crk3; enzyme activity, inhibitor, radiometric).
The IC50 of `O=C(N[C@@H](CC1CCCCC1)C(=O)N[C@@H](C[C@@H]1CCNC1=O)C(O)S(=O)(=O)O)OCc1cccc(Cl)c1` (some centres unmarked) is reported as 0.29 ± 0.08 µM (Replicase polyprotein 1a 3C-like proteinase; enzyme activity, FRET; NL-2010).
The IC50 of `Cc1cc(C)cc(-c2ccc3nc(NC(=O)C4CCCCC4)nn3c2)c1` is reported as > 100 µM (CDK2 with cyclin A; enzyme activity, inhibitor).
`CC(C)C[C@H](NC(=O)[C@@H](NC(=O)[C@H](CCONC(=N)N)NC(=O)OCc1ccccc1)C1CCCCC1)[C@@H](O)CC(=O)NCCc1ccccc1` gave an IC50 of > 99 µM (Plasmepsin IX; enzyme activity, inhibitor).
With `Oc1ccccc1C1=NN(c2ccccc2)C(c2cccs2)C1` (centres unmarked) the IC50 was 29.5 µM (Urease; enzyme activity, inhibitor, absorbance; pH 8.2).
The IC50 of `O=C(N[C@@H](CC1CCCCC1)C(=O)N[C@@H](C[C@@H]1CCNC1=O)C(=O)C(=O)NC1CC1)OCc1cccc(Cl)c1` is reported as 6.57 µM (Replicase polyprotein 1ab main protease; enzyme activity, inhibitor, FRET).
`Oc1ccccc1C1=NN(c2ccccc2)C(c2ccc(C(F)(F)F)cc2)C1` (centres unmarked) has an IC50 of 12.6 µM (Urease; enzyme activity, inhibitor, absorbance; pH 8.2).
With `CC(C)=C1C(=O)Nc2ccc(S(=O)(=O)NCc3ccc(C)cc3)cc21` the IC50 was > 10 µM (CDK8; enzyme activity, inhibitor, FRET).

Excerpt of the above:
With `Oc1ccccc1C1=NN(c2ccccc2)C(c2ccccc2C(F)(F)F)C1` (centres unmarked) the IC50 was 9.18 µM (Urease; enzyme activity, inhibitor, absorbance; pH 8.2).
With `CCc1ccc(NS(=O)(=O)c2ccc3c(c2)C(=C(C)C)C(=O)N3)cc1` the IC50 was > 10 µM (CDK8; enzyme activity, inhibitor, FRET).
With `CNC(=O)NC1=CC(=O)CC(C)(C)C1` the IC50 was > 100 µM (CDK2 with cyclin A; enzyme activity, inhibitor).
`CC(=O)Nc1ccc(NS(=O)(=O)c2ccc3c(c2)C(=C(C)C)C(=O)N3)cc1` has an IC50 of 1.68 µM (CDK8; enzyme activity, inhibitor, FRET).
